{"data": "Measured values pooled from the literature", "kasA": "3-oxoacyl-[acyl-carrier-protein] synthase 1 (kasA, Mycobacterium tuberculosis, UniProt P9WQD9)", "note": "Each line is one published result; not all experiments were run side by side."}
{"SMILES": "CC[C@H](C)[C@H](NC(=O)CNC(=O)[C@@H](N)CCCCN)C(=O)N[C@@H](CC(C)C)C(=O)N[C@@H](CCCCN)C(=O)N[C@@H](CCCNC(=N)N)C(=O)N[C@@H](CCC(=O)O)C(=O)N[C@@H](CCCCN)C(=O)N[C@@H](CCCNC(=N)N)C(=O)N[C@@H](CC(C)C)C(=O)N[C@@H](CCCNC(=N)N)C(=O)N[C@@H](CCCNC(=N)N)C(=O)N[C@@H](CCCCN)C(=O)N[C@@H](CC(N)=O)C(=O)N[C@H](C(=O)N[C@@H](Cc1c[nH]cn1)C(=O)N[C@@H](Cc1c[nH]c2ccccc12)C(=O)N1CCC[C@H]1C(=O)N[C@@H](CCC(=O)O)C(=O)N[C@@H](CCC(=O)O)C(=O)NCC(=O)N[C@@H](CCCCN)C(=O)N[C@@H](CC(C)C)C(=O)N[C@@H](CCCNC(=N)N)C(=O)N[C@@H](CCC(=O)O)C(=O)N[C@@H](Cc1ccc(O)cc1)C(=O)N[C@@H](Cc1ccccc1)C(=O)N[C@@H](Cc1ccc(O)cc1)C(=O)N[C@@H](Cc1ccccc1)C(=O)N[C@@H](CCC(=O)O)C(=O)N[C@@H](CC(C)C)C(=O)N[C@@H](CC(=O)O)C(=O)N[C@@H](CCC(=O)O)C(=O)N[C@@H](C)C(=O)N[C@@H](CCC(=O)O)C(=O)N[C@@H](CCCNC(=N)N)C(=O)N[C@H](C(=O)N[C@@H](CC(N)=O)C(=O)N[C@H](C(=O)O)C(C)C)C(C)C)C(C)C", "tested on": "HeLa and HEK-293T cells", "test": "phosphatase bead binding, competitive inhibitor, PIB pulldown iBAQ LC-MS/MS, refers to: PPP6C", "conditions": "concentration not given", "scale": "relative to: untreated control", "measurement": "log2 fold change", "value": -0.11}
{"SMILES": "CCc1nc2ccc(Cl)cn2c1C(=O)N1CC(O)C(C)(C)C1 (stereo not drawn)", "tested on": "kasA", "test": "thermal stabilization, nanoDSF", "conditions": "100 µM", "measurement": "ΔTm", "value": "-0.12 °C"}
{"SMILES": "COc1ccc(N2C(=O)N(c3c(C)cccc3Cl)Cc3cnc(Nc4ccc(C5CCN(C)CC5)cc4OC)nc32)nc1", "tested on": "LTK (Homo sapiens, UniProt P29376)", "test": "kinase activity", "conditions": "0.5 µM", "measurement": "inhibition", "value": "58%"}
{"SMILES": "CC(NC(C)(C)C)C(=O)c1cccc(Cl)c1 (stereo not drawn)", "tested on": "Voltage-dependent P/Q-type calcium channel subunit alpha-1A (Homo sapiens, UniProt O00555)", "test": "ion current, antagonist", "test system": "HEK293", "conditions": "30 µM", "measurement": "inhibition", "value": "57%"}
{"SMILES": "O=C(Nc1cnccc1Cl)N1CCN(Cc2ccc3c(c2)OC(F)(F)O3)CC1", "tested on": "PTGER1 (Homo sapiens, UniProt P34995)", "test": "binding, refers to: EP1", "conditions": "50 µM, human, together with: [3H]prostaglandin E2", "measurement": "inhibition", "value": "10%"}
{"SMILES": "CCN(CC)CCNC(=O)c1cc(Cl)c(N)cc1OC", "tested on": "kasA", "test": "thermal stabilization, nanoDSF", "conditions": "100 µM", "measurement": "ΔTm", "value": "0.02 °C"}
{"SMILES": "O=C(Nc1cccnn1)N1CCC(=Cc2cccc(Oc3ccc(C(F)(F)F)cn3)c2)CC1", "tested on": "Vitamin D3 receptor (VDR, Homo sapiens, UniProt P11473)", "test": "radioligand binding, inhibitor", "conditions": "10 µM, human, together with: [3H]1alpha,25-dihydroxyvitamin D3", "measurement": "inhibition", "value": "-1%"}
{"SMILES": "CC[C@H](C)[C@H](NC(=O)CNC(=O)[C@@H](N)CCCCN)C(=O)N[C@@H](CC(C)C)C(=O)N[C@@H](CCCCN)C(=O)N[C@@H](CCCNC(=N)N)C(=O)N[C@@H](CCC(=O)O)C(=O)N[C@@H](CCCCN)C(=O)N[C@@H](CCCNC(=N)N)C(=O)N[C@@H](CC(C)C)C(=O)N[C@@H](CCCNC(=N)N)C(=O)N[C@@H](CCCNC(=N)N)C(=O)N[C@@H](CCCCN)C(=O)N[C@@H](CC(N)=O)C(=O)N[C@H](C(=O)N[C@@H](Cc1c[nH]cn1)C(=O)N[C@@H](Cc1c[nH]c2ccccc12)C(=O)N1CCC[C@H]1C(=O)N[C@@H](CCC(=O)O)C(=O)N[C@@H](CCC(=O)O)C(=O)NCC(=O)N[C@@H](CCCCN)C(=O)N[C@@H](CC(C)C)C(=O)N[C@@H](CCCNC(=N)N)C(=O)N[C@@H](CCC(=O)O)C(=O)N[C@@H](Cc1ccccc1)C(=O)N[C@@H](Cc1ccccc1)C(=O)N[C@@H](Cc1ccccc1)C(=O)N[C@@H](Cc1ccccc1)C(=O)N[C@@H](CCC(=O)O)C(=O)N[C@@H](CC(C)C)C(=O)N[C@@H](CC(=O)O)C(=O)N[C@@H](CCC(=O)O)C(=O)N[C@@H](C)C(=O)N[C@@H](CCC(=O)O)C(=O)N[C@@H](CCCNC(=N)N)C(=O)N[C@H](C(=O)N[C@@H](CC(N)=O)C(=O)N[C@H](C(=O)O)C(C)C)C(C)C)C(C)C", "tested on": "HeLa and HEK-293T cells", "test": "phosphatase bead binding, competitive inhibitor, PIB pulldown iBAQ LC-MS/MS, refers to: PPP6R2", "conditions": "concentration not given", "scale": "relative to: untreated control", "measurement": "log2 fold change", "value": 0.0645}
{"SMILES": "CN1CCN(c2cc(-c3ccncc3)c(-c3ccc4ccccc4c3)nn2)CC1", "tested on": "CHRM3 (Homo sapiens, UniProt P20309)", "test": "antagonist, FLIPR", "conditions": "10 µM", "measurement": "inhibition", "value": "10.2%"}
{"SMILES": "Oc1cc(Cl)ccc1Oc1ccc(Cl)cc1Cl", "tested on": "kasA", "test": "thermal stabilization, nanoDSF", "conditions": "100 µM", "measurement": "ΔTm", "value": "3.77 °C"}
{"SMILES": "Oc1ccc2c3c1O[C@H]1[C@@H](O)CC[C@@]4(O)[C@@H](C2)N(CC2CCC2)CC[C@]314", "tested on": "G-protein coupled receptor 87 (GPR87, Homo sapiens, UniProt Q9BY21)", "test": "β-arrestin recruitment, TANGO luminescence, refers to: GPR87", "conditions": "concentration not given", "scale": "relative to: basal luminescence", "measurement": "log2 fold change", "value": -0.115}
{"SMILES": "CCc1nc2ccc(Cl)cn2c1C(=O)N1CC(CC(N)=O)C1", "tested on": "kasA", "test": "thermal stabilization, nanoDSF", "conditions": "100 µM", "measurement": "ΔTm", "value": "-0.21 °C"}
{"SMILES": "C[C@H]1CN(c2n[nH]c3nc(N[C@H]4CC[C@H](NS(=O)(=O)CCC(F)(F)F)CC4)ncc23)CCO1", "tested on": "CDC37 (Homo sapiens, UniProt Q16543)", "test": "inhibitor, Kinobeads competition profiling", "conditions": "0.8 µM", "scale": "relative to: vehicle", "measurement": "relative abundance", "value": 1.17}
{"SMILES": "CCn1ncc2ccc(NS(=O)(=O)c3cccc(C(=O)O)c3)cc21", "tested on": "kasA", "test": "thermal stabilization, nanoDSF", "conditions": "100 µM", "measurement": "ΔTm", "value": "-0.18 °C"}
{"SMILES": "O=C(c1ccc(Cl)cc1)N1CCN2C(=O)N(OC(=O)N3CCOc4ccccc43)C(=O)C2C1 (stereo not drawn)", "tested on": "APEH (Homo sapiens, UniProt P13798)", "test": "enzyme activity, inhibitor, MS-based ABPP", "test system": "SW-620 in situ", "conditions": "10 µM, 2 h, 37 °C", "scale": "relative to: compound over DMSO, lower = stronger inhibition", "measurement": "median ratio", "value": 1.13}
{"note": "A few entries again:"}
{"SMILES": "CC(NC(C)(C)C)C(=O)c1cccc(Cl)c1 (stereo not drawn)", "tested on": "Voltage-dependent P/Q-type calcium channel subunit alpha-1A (Homo sapiens, UniProt O00555)", "test": "ion current, antagonist", "test system": "HEK293", "conditions": "30 µM", "measurement": "inhibition", "value": "57%"}
{"SMILES": "O=C(Nc1cnccc1Cl)N1CCN(Cc2ccc3c(c2)OC(F)(F)O3)CC1", "tested on": "PTGER1 (Homo sapiens, UniProt P34995)", "test": "binding, refers to: EP1", "conditions": "50 µM, human, together with: [3H]prostaglandin E2", "measurement": "inhibition", "value": "10%"}
{"SMILES": "CCN(CC)CCNC(=O)c1cc(Cl)c(N)cc1OC", "tested on": "kasA", "test": "thermal stabilization, nanoDSF", "conditions": "100 µM", "measurement": "ΔTm", "value": "0.02 °C"}
